Measured values of several laboratories.
Lines come from different studies, so protocols differ. Numbers after ± are the reported error.
IDE: Insulin-degrading enzyme (IDE, Homo sapiens, UniProt P14735)

O=C(O)CCNc1cc(N2CCc3ccccc3CC2)nc(-c2ccccn2)n1  viability (HBL-1; 0.1 µM, 120 h): 122%
CC(C)NCC(O)c1ccc(O)c(O)c1 (stereo not drawn)  sarcomere length (ventricular cardiomyocytes, C57BL/6 mouse; dose not given, 0.208 s): 1.49 µm
COc1ccc(C=C2SC(=N)N(c3ccccc3OC)C2=O)cc1  IC50 (Plasmodium yoelii; 17XL; 384-well): 0.232 ± 0.066 µM
CC(C)(C)OC(=O)Nc1ccc(-c2cc(C(=O)NCCCCCCC(=O)NO)no2)cc1  viability (HBL-1; 1 µM, 120 h): 0.169%
Cc1[nH]c(C)c(-c2ccc(-c3cccc(OC(F)(F)F)c3)nc2)c(=O)c1Cl  IC50 (Plasmodium yoelii; 17XL; 384-well): 0.191 ± 0.069 µM
Nc1ncnc2c1ncn2[C@@H]1C=C(CO)[C@@H](O)[C@H]1O  viability (HBL-1; 0.1 µM, 120 h): 97.6%
CCCCCCCc1ccc(-c2c(C)[nH]c(C)c(Cl)c2=O)cn1  IC50 (Plasmodium yoelii; 17XL; 384-well): 0.315 ± 0.149 µM
Cn1cc(-c2ccc(-c3cncc(Cl)c3N3CCC4(CCNC4=O)CC3)cc2)cn1  log2 fold change (COLO 205; gene expression, microarray, measured: HMOX1 mRNA; concentration not given, 2 h; baseline: untreated cells): 2.17
Cn1cc(/C=C/C(=O)c2cccc(F)c2)cc1/C=C/C(=O)NO  viability (HBL-1; 0.5 µM, 120 h): 123%
CC(C)C[C@H](NC(=O)C[C@H](O)[C@H](CC(C)C)NC(=O)[C@H](Cc1c[nH]cn1)NC(=O)CNC(=O)[C@@H](NC(=O)[C@H](C)NC(=O)[C@H](Cc1c[nH]c2ccccc12)NC(=O)[C@H](CCC(N)=O)NC(=O)[C@@H](Cc1ccccc1)NC(=O)COCCOCCNC(=O)CCC(C(=O)O)N1CCN(CC(=O)O)CCN(CC(=O)O)CC1)C(C)C)C(N)=O (stereo partly drawn) [lutetium-177 labelled]  tissue uptake (female BALB/c nu/nu mice, bone; intravenous, 50 pmol, 1 h): 0.3 ± 0.1 %ID/g
O=C(NCc1ccccc1)c1c(/N=C/c2c(O)ccc3ccccc23)sc2c1CCCC2  viability (HBL-1; 0.5 µM, 120 h): 120%
Cc1cc(NC2CCCC2)nc(Nc2ccccc2)n1  IC50 (Plasmodium yoelii; 17XL; 384-well): > 20 µM
Cc1cn([C@H]2C[C@H](O)[C@@H](CO)O2)c(=O)nc1N  viability (HBL-1; 0.5 µM, 120 h): 128%
Cc1[nH]c(C)c(-c2ccc(OCc3ccc(F)cc3)cc2)c(=O)c1Cl  IC50 (Plasmodium yoelii; 17XL; 384-well): 1.69 ± 0.746 µM
CCCCCCCCOC(=O)C(=O)CCC(=O)O  viability (HBL-1; 0.5 µM, 120 h): 118%
OC(CCN1CCCCC1)(c1ccccc1)C1CC2C=CC1C2 (stereo not drawn)  delta power change, EEG, in Pz-O1 (resting-state EEG; healthy elderly humans; oral, 4 mg, eyes open, LS mean; baseline: baseline): 46.9%
COc1ccc2c(NN=Cc3ccc(Cl)cc3)ccnc2c1  IC50 (Plasmodium yoelii; 17XL; 384-well): > 20 µM
Cc1cccc(-c2ccc([C@H]3[C@@H](CO)N4CCCCN(C(=O)c5cccnc5)C[C@H]34)cc2)c1  EC50 (IDE; enzyme activity, inhibitor, fluorogenic kinetic; together with: Mca-RPPGFSAFK(Dnp)-OH substrate): 3.4 µM
Cc1[nH]c(C)c(-c2ccc(CCc3cccc(C(F)(F)F)c3)nc2)c(=O)c1Cl  IC50 (Plasmodium yoelii; 17XL; 384-well): 0.1 ± 0.029 µM
Cc1c(-c2ccc([C@@H]3[C@@H](CO)N4CCCCN(S(=O)(=O)c5ccccc5C(F)(F)F)C[C@@H]34)cc2)cccc1C(F)(F)F  EC50 (IDE; enzyme activity, inhibitor, fluorescence kinetic; together with: Mca-RPPGFSAFK(Dnp)-OH substrate): 0.095 µM
c1coc(-c2n[nH]cc2-c2ccnc3ccccc23)c1  log2 fold change (GCN2 (Candida albicans); kinase binding, MIB/MS competition; Candida albicans lysate; 1 µM; baseline: DMSO): -0.21
O=C(/C=C/C=C/C=C/C1CCCCC1)NC1=C[C@@](O)(/C=C/C=C/C=C/C(=O)NC2=C(O)CCC2=O)[C@@H]2O[C@@H]2C1=O  GI50 (HCC95; cell growth, CellTiter-Glo; 78 h): 22 µM
Oc1ccccc1-c1n[nH]cc1-c1ccnc2ccccc12  log2 fold change (BCK1 (Candida albicans); kinase binding, MIB/MS competition; Candida albicans lysate; 1 µM; baseline: DMSO): 0.05
COc1cnc2cccc(N3CCc4c(cc(Cn5ccnc5C)cc4-c4cn(C)nc4C(F)(F)F)C3=O)c2c1  EC50 (Huh-7; cell growth, inhibitor; 120 h): 4.69 µM

A few entries again:
COc1ccc2c(NN=Cc3ccc(Cl)cc3)ccnc2c1  IC50 (Plasmodium yoelii; 17XL; 384-well): > 20 µM
Cc1cccc(-c2ccc([C@H]3[C@@H](CO)N4CCCCN(C(=O)c5cccnc5)C[C@H]34)cc2)c1  EC50 (IDE; enzyme activity, inhibitor, fluorogenic kinetic; together with: Mca-RPPGFSAFK(Dnp)-OH substrate): 3.4 µM
